Assay results gathered from unrelated publications.
Compare with care: the assays were run in different laboratories. ± gives the spread as reported.
Target: Mu-type opioid receptor (OPRM1, Homo sapiens, UniProt P35372)
Sequence of UniProt P35372 (whole entry, looked up): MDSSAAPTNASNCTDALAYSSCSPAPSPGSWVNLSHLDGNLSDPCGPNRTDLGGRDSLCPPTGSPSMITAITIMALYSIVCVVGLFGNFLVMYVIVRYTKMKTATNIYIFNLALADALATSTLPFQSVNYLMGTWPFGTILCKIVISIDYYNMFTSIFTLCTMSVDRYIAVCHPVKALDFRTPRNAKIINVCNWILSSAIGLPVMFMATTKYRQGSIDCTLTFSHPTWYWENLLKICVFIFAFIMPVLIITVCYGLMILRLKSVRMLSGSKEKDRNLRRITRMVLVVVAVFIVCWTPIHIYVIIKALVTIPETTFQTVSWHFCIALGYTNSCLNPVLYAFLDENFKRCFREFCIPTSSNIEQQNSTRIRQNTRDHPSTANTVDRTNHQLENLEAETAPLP

Structure (SMILES)	test	test system	setting	scale	endpoint	result
C[Si](C)(C)C[C@@H](CN)CC(=O)O	ligand displacement, radioligand	–	75 µM	–	inhibition	4%
CO[C@@H](C)c1c(NC(=O)Nc2cnc(-n3nccn3)c(C(F)(F)F)c2)cnc2sc(C)nc12	ligand displacement, radioligand	–	10 µM	–	inhibition	17.4%
COc1ccc(C(=O)Nc2c(-c3cccs3)nc3ccccn23)cc1	ligand displacement, radioligand	–	10 µM	–	inhibition	< 50%
CC(C)Cn1c(SCC(=O)N2CCc3ccccc3C2)nc2cc(Cl)ccc2c1=O	ligand displacement, radioligand	–	10 µM	–	inhibition	-4%
C[C@H](CCC(=O)O)[C@H]1CC[C@H]2[C@@H]3[C@H](OS(=O)(=O)O)C[C@@H]4C[C@H](O)CC[C@]4(C)[C@H]3C[C@H](O)[C@]12C	–	–	100 µM	–	activity	1%
COc1ccc(C#CC2=C[C@H]3C[C@@]4(OC(=O)C=C24)[C@H]2CC[C@H](C(OC)OC)N32)cc1	ligand displacement, radioligand	–	10 µM	–	inhibition	17%
CC(=O)C12NC(C)(C)CC1(C)C(=O)C1=C2c2c(c3c4n2C(C)(C)CC2=C4C4(CC(C)(C)NC(C)(C4)C2=O)CC3(C)C)C(=O)C(C)(C)N1 (single isomer, unassigned; (-))	cAMP level, agonist, LANCE Ultra cAMP	CHO	50 µM	–	activation	3.05 ± 0.07%
COc1ncc2nc(C)n(Cc3ncc(S(N)(=O)=O)cc3F)c2c1-c1ccccc1	antagonist, cell-based	–	10 µM	–	inhibition	-0.232%
Cc1[nH]nc2c1N=C(c1ccccc1Cl)c1cnc(N3CCOCC3)cc1N2	cell-free assay	–	10 µM	–	inhibition	-6%
O=C1c2sc(-c3ccc(N4CCC(F)C4)nc3F)nc2CCN1c1cccnc1 (stereo not drawn)	ligand displacement, radioligand	–	1 µM	–	inhibition	28%
COc1ccc(S(=O)(=O)N2CCc3ccccc3C2)cc1N1CCN(C(=O)c2ccc(F)cc2C(F)(F)F)CC1	ligand displacement, radioligand	–	1 µM	–	inhibition	5.6%
CNC(=O)C[C@H](Cc1ccc(C#N)cc1)NC(=O)c1cc(-c2ccc(CN[C@H](C)c3ccc(C)cc3)o2)ccc1Cl	agonist response, antagonist	–	10 µM	reference: agonist control	inhibition	7%

For quick reference, copied from above:
Structure (SMILES)	test	test system	setting	scale	endpoint	result
COc1ccc(C(=O)Nc2c(-c3cccs3)nc3ccccn23)cc1	ligand displacement, radioligand	–	10 µM	–	inhibition	< 50%
CC(C)Cn1c(SCC(=O)N2CCc3ccccc3C2)nc2cc(Cl)ccc2c1=O	ligand displacement, radioligand	–	10 µM	–	inhibition	-4%
